Measured values from different studies.
Compare with care: the assays were run in different laboratories. Numbers after ± are the reported error.

Structure (SMILES) | organism | assay | system | conditions | EC50
O=c1c(O)cccc(S(=O)(=O)c2cccc3ccccc23)c1O | Hepatitis B virus | viral replication, inhibitor | HepDES19 | – | 5.9 µM
CC1(C)NCCC[C@]2(C)[C@H]3CC=C4[C@@H]5C[C@@](C)(CO)CC[C@]5(C)CC[C@@]4(C)[C@]3(C)CC[C@@H]12 | Human alphaherpesvirus 1 | cytopathic effect | HFF, E-377 | – | > 6 µM
Cc1cc(C#N)cc(C)c1Oc1nc(NC2CCN(Cc3ccc(C(N)=O)cc3)CC2)nc2ccccc12 | HIV-1 | viral replication, luciferase reporter | TZM-bl, NL4-3 wild type | – | 0.00182 ± 0.00061 µM
C[C@H]1[C@H](C)CC[C@]2(CO)CC[C@]3(C)C(=CC[C@@H]4[C@@]5(C)CCCNC(C)(C)[C@@H]5CC[C@]43C)[C@H]12 | Human alphaherpesvirus 1 | cytopathic effect | HFF, E-377 | – | > 6 µM
C=Cc1cn([C@@H]2O[C@H](CO)C[C@H]2O)c2ncnc(N)c12 | Trypanosoma evansi | parasite growth, resazurin | AnTat 3.3 | 48 h plus 24 h resazurin | 0.038 ± 0.002 µM
C=C(C)[C@@H]1CC[C@]2(C(=O)n3ccnc3)CC[C@]3(C)[C@H](CC[C@@H]4[C@@]5(C)CCCNC(C)(C)[C@@H]5CC[C@]43C)[C@@H]12 | Human alphaherpesvirus 1 | cytopathic effect | HFF, E-377 | – | > 6 µM
O=c1c(O)c(S(=O)(=O)Cc2ccccc2)ccc(S(=O)(=O)Cc2ccccc2)c1O | Hepatitis B virus | viral replication, inhibitor | HepDES19 | – | > 50 µM
Cc1cc(C#N)cc(C)c1Oc1nc(NC2CCN(Cc3ccc(S(N)(=O)=O)cc3)CC2)nc2cccnc12 | HIV-1 | viral replication, luciferase reporter | TZM-bl, NL4-3 wild type | – | 0.00533 ± 0.00175 µM
CC[C@H](C)[C@@H]1NC(=O)[C@@H]2[C@H](CCN2C(=O)[C@@H](NC(=O)[C@@H](C)NC)[C@@H](C)CC)Oc2ccc(OC)c(c2)/C=C\NC1=O | porcine epidemic diarrhea virus | viral cytopathic effect | Vero cells | 72 h | 4.49 ± 0.67 µM
Nc1ncnc2c1c(Br)cn2[C@@H]1O[C@H](CO)C[C@H]1O | Trypanosoma evansi | parasite growth, resazurin | AnTat 3.3 | 48 h plus 24 h resazurin | 0.0009 ± 0.0002 µM
Nc1nc2c(ncn2[C@H]2C[C@H](O)[C@@H](CO)/C2=C\F)c(=O)[nH]1 | Hepatitis B virus | viral replication, inhibitor, qPCR | HepG2 2.2.15 | 14 days | 0.0009 µM
Nc1ncnc2c1ccn2[C@H]1C[C@H](O)[C@@H](CO)O1 | Trypanosoma evansi | parasite growth, resazurin | AnTat 3.3 | 48 h plus 24 h resazurin | > 64 µM
CCCCS(=O)(=O)c1ccc(S(=O)(=O)CCCC)c(O)c(=O)c1O | Hepatitis B virus | viral replication, inhibitor | HepDES19 | – | > 50 µM
Nc1ncnc2c1c(Br)cn2[C@H]1C[C@H](O)[C@@H](CO)O1 | Trypanosoma evansi | parasite growth, resazurin | AnTat 3.3 | 48 h plus 24 h resazurin | 1.7 ± 0.5 µM
CCCCCCSc1cccc(O)c(=O)c1O | Hepatitis B virus | viral replication, inhibitor | HepDES19 | – | 50 µM
C=C(C)[C@@H]1CC[C@]2(C(=O)NC(CO)Cc3ccccc3)CC[C@]3(C)[C@H](CC[C@@H]4[C@@]5(C)CCCNC(C)(C)[C@@H]5CC[C@]43C)[C@@H]12 (stereo partly drawn) | Human alphaherpesvirus 1 | cytopathic effect | HFF, E-377 | – | > 1.2 µM
Nc1ncnc2c1c(F)cn2[C@@H]1O[C@H](CO)C[C@H]1O | Trypanosoma evansi | parasite growth, resazurin | AnTat 3.3 | 48 h plus 24 h resazurin | 0.004 ± 0.001 µM
O=c1c(O)c(SCc2ccccc2)ccc(SCc2ccccc2)c1O | Hepatitis B virus | viral replication, inhibitor | HepDES19 | – | 11 µM
CC(C)Oc1ncnc2c1c(Cl)cn2[C@@H]1O[C@H](CO)[C@@H](O)[C@H]1O | Trypanosoma evansi | parasite growth, resazurin | AnTat 3.3 | 48 h plus 24 h resazurin | 0.2 ± 0.02 µM
Cc1cc(/C=C/C#N)cc(C)c1Oc1nc(NC2CCN(Cc3ccc(C(N)=O)cc3)CC2)nc2ncccc12 | HIV-1 | viral replication, luciferase reporter | TZM-bl, NL4-3 wild type | – | > 0.0468 µM
CN[C@H](C)C(=O)N[C@H](C(=O)N1CC[C@@H]2Oc3ccc(OC)c(c3)/C=C\NC(=O)[C@H](Cc3ccccc3)NC(=O)[C@H]21)C(C)C | porcine epidemic diarrhea virus | viral cytopathic effect | Vero cells | 72 h | 6.17 ± 0.5 µM
Cc1cc(C#N)cc(C)c1Oc1nc(NC2CCN(Cc3cccc(C(N)=O)c3)CC2)nc2ccccc12 | HIV-1 | viral replication, luciferase reporter | TZM-bl, NL4-3 wild type | – | 0.00855 ± 0.00286 µM
O=c1c(O)cccc(S(=O)(=O)c2ccccc2)c1O | Hepatitis B virus | viral replication, inhibitor | HepDES19 | – | 11.3 µM
CC[C@H](N[C@H](C)CC(N)=O)c1ccc(Cl)c(Oc2ccccc2)c1F | Hepatitis C virus | viral replication, luciferase replicon | Huh-7 subgenomic replicon, genotype 1b | 72 h | inactive

For quick reference, copied from above:
Structure (SMILES) | organism | assay | system | conditions | EC50
C=C(C)[C@@H]1CC[C@]2(C(=O)n3ccnc3)CC[C@]3(C)[C@H](CC[C@@H]4[C@@]5(C)CCCNC(C)(C)[C@@H]5CC[C@]43C)[C@@H]12 | Human alphaherpesvirus 1 | cytopathic effect | HFF, E-377 | – | > 6 µM
CC[C@H](N[C@H](C)CC(N)=O)c1ccc(Cl)c(Oc2ccccc2)c1F | Hepatitis C virus | viral replication, luciferase replicon | Huh-7 subgenomic replicon, genotype 1b | 72 h | inactive
